Measurements pooled from the literature.
Protocols differ between the studies behind these lines.
B1: POLR2A 1356-1767 (Homo sapiens, UniProt P24928); sequence looked up; chain RTTSNDIVEIFTVLGIEAVRKALERELYHVISFDGSYVNYRHLALLCDTMTCRGHLMAITRHGVNRQDTGPLMKCSFEETVDVLMEAAAHGESDPMKGVSENIMLGQLAPAGTGCFDLLLDAEKCKYGMEIPTNIPGLGAAGPTGMFFGSAPSPMGGISPAMTPWNQGATPAYGAWSPSVGSGMTPGAAGFSPSAASDASGFSPGYSPAWSPTPGSPGSPGPSSPYIPSPGGAMSPSYSPTSPAYEPRSPGGYTPQSPSYSPTSPSYSPTSPSYSPTSPNYSPTSPSYSPTSPSYSPTSPSYSPTSPSYSPTSPSYSPTSPSYSPTSPSYSPTSPSYSPTSPSYSPTSPSYSPTSPSYSPTSPSYSPTSPSYSPTSPSYSPTSPSYSPTSPNYSPTSPNYTPTSPSYSPTSP
B2: cysJ 52-599 C162T/C552S/E121C/N556C (Escherichia coli, UniProt P38038); E121C-N556C disulfide; sequence looked up; chain AATPAPAAEMPGITIISASQTGNARRVAEALRDDLLAAKLNVKLVNAGDYKFKQIASEKLLIVVTSTQGCGEPPEEAVALHKFLFSKKAPKLENTAFAVFSLGDSSYEFFTQSGKDFDSKLAELGGERLLDRVDADVEYQAAASEWRARVVDALKSRAPVAAPSQSVATGAVNEIHTSPYSKDAPLVASLSVNQKITGRNSEKDVRHIEIDLGDSGMRYQPGDALGVWYQNDPALVKELVELLWLKGDEPVTVEGKTLPLNEALQWHFELTVNTANIVENYATLTRSETLLPLVGDKAKLQHYAATTPIVDMVRFSPAQLDAEALINLLRPLTPRLYSIASSQAEVENEVHVTVGVVRYDVEGRARAGGASSFLADRVEEEGEVRVFIEHNDNFRLPANPETPVIMIGPGTGIAPFRAFMQQRAADEAPGKNWLFFGNPHFTEDFLYQVEWQRYVKDGVLTRIDLAWSRDQKEKVYVQDKLREQGAELWRWINDGAHIYVSGDACRMAKDVEQALLEVIAEFGGMDTEAADEFLSELRVERRYQRDVY
B3: NR4A2 1-165 (Homo sapiens, UniProt P43354); sequence looked up; chain MPCVQAQYGSSPQGASPASQSYSYHSSGEYSSDFLTPEFVKFSMDLTNTEITATTSLPSFSTFMDNYSTGYDVKPPCLYQMPLSGQQSSIKVEDIQMHNYQQHSHLPPQSEEMMPHSGSVYYKPSSPPTPTTPGFQVQHSPMWDDPGSLHNFHQNYVATTHMIEQ
B4: BDP1 1-484 (Homo sapiens, UniProt A6H8Y1); chain MFRRARLSVKPNVRPGVGARGSTASNPQRGRESPRPPDPATDSASKPAEPTDVPTVDFGGAEPQEKAPRSSTEKTGGDNDVEESSRSSSTVSQRRKRISSTSSLVKSSVSVPSESHPLSTINQEAPQPTATSTKEKQPCSDRYRIYKAQKLREMLKEELRKEKKQWKNKYAINESQRPPDRSKMTMRDFIYYLPDNNPMTSSLEQEKKTEKPSTPVQTREQEGKSTPNAEDNEMEEETDDGPLLVPRVKVAEDGSIILDEESLTVEVLRTKGPCVVEENDPIFERGSTTTYSSFRKNYYSKPWSNKETDMFFLAISMVGTDFSMIGQLFPHRARIEIKNKFKREEKTNGWRIDKAFQEKRPFDFDFFAHLLQKVLAEEEKRKQKSVKNHSLKEKKSTKPRKNVKVKKVACEGVNNDPDESMSSRISDTERSQKDAQTVEEESLTLSREDAEQVALEVDLNQKKRRRKKQDGANELGVNNLLENA
B5: SIS1 residues 1-121 (Saccharomyces cerevisiae, UniProt P25294); chain SMVKETKLYDLLGVSPSANEQELKKGYRKAALKYHPDKPTGDTEKFKEISEAFEILNDPQKREIYDQYGLEAARSGGPSFGPGGPGGAGGAGGFPGGAGGFSGGHAFSNEDAFNIFSQFFGG
B6: SEH1 (Saccharomyces cerevisiae, UniProt P53011); sequence looked up; chain MQPFDSGHDDLVHDVVYDFYGRHVATCSSDQHIKVFKLDKDTSNWELSDSWRAHDSSIVAIDWASPEYGRIIASASYDKTVKLWEEDPDQEECSGRRWNKLCTLNDSKGSLYSVKFAPAHLGLKLACLGNDGILRLYDALEPSDLRSWTLTSEMKVLSIPPANHLQSDFCLSWCPSRFSPEKLAVSALEQAIIYQRGKDGKLHVAAKLPGHKSLIRSISWAPSIGRWYQLIATGCKDGRIRIFKITEKLSPLASEESLTNSNMFDNSADVDMDAQGRSDSNTEEKAELQSNLQVELLSEHDDHNGEVWSVSWNLTGTILSSAGDDGKVRLWKATYSNEFKCMSVITAQQ
B7: McsA (Bacillus subtilis, UniProt P37569); chain MICQECHERPATFHFTKVVNGEKIEVHICEQCAKENSDSYGISANQGFSIHNLLSGLLNMDSSFQNAGTQMFSHSEQISACPKCGMTFQQFRKIGRFGCSECYKTFHSNITPILRKVHSGNTVHAGKIPKRIGGNLHVRRQIDMLKKELESLIHQEEFENAAHVRDQIRLLEQSLKSTDSEEEQE
B8: rasC Q62L (Dictyostelium discoideum, UniProt P32253); sequence looked up; chain MSKLLKLVIVGDGGVGKSALTIQLTQNQFIAEYDPTIENSYRKQVNIDEEVYMLDILDTAGLEEYSAMRDQYIRSGRGFLIVYSIISRASFEAVTTFREQILRVKDLSTYPIVIIGNKADLPDKDRKVPPMEGKELAKSFGAPFLETSAKSRVNVEEAFFTLVREIKRWNQNPQNEEMLPPKKRGCIIL
B9: EFR3A 721-791 A734R (Homo sapiens, UniProt Q14156); chain SNTEEITFEALKKRIDTSGMEEQEKEKRRLVIEKFQKAPFEEIAAQCESKANLLHDRLAQILELTIRPPPS
B10: Secisbp2 586-846 (Rattus norvegicus, UniProt Q9QX72); sequence looked up; chain VEGESEEPAGTEFQRDPEACQPAPDSATFPKIHSRRFRDYCSQMLSKEVDACVTGLLKELVRFQDRMYQKDPVKAKTKRRLVLGLREVLKHLKLRKLKCIIISPNCEKTQSKGGLDDTLHTIIDCACEQNIPFVFALNRKALGRSLNKAVPVSIVGIFSYDGAQDQFHKMVELTMAARQAYKTMLETMRQEQAGEPGPQTPPSPPMQDPIQSTDEGTLASTGEEPHYIEIWRKHLEAYSQHALELEDSLEASTSQMMNLNL
B11: ranibizumab Fab; V domains shown; VH EVQLVESGGGLVQPGGSLRLSCAASGYDFTHYGMNWVRQAPGKGLEWVGWINTYTGEPTYAADFKRRFTFSLDTSKSTAYLQMNSLRAEDTAVYYCAKYPYYYGTSHWYFDVWGQGTLVTVSS; VL DIQLTQSPSSLSASVGDRVTITCSASQDISNYLNWYQQKPGKAPKVLIYFTSSLHSGVPSRFSGSGSGTDFTLTISSLQPEDFATYYCQQYSTVPWTFGQGTKVEIK
B12: CCA1 204-405 (Arabidopsis thaliana, UniProt P92973); sequence looked up; chain ESNSDLNAKSLENGNEQGPQTYPMHIPVLVPLGSSITSSLSHPPSEPDSHPHTVAGDYQSFPNHIMSTLLQTPALYTAATFASSFWPPDSSGGSPVPGNSPPNLAAMAAATVAAASAWWAANGLLPLCAPLSSGGFTSHPPSTFGPSCDVEYTKASTLQHGSVQSREQEHSEASKARSSLDSEDVENKSKPVCHEQPSATPE
B13: GDF15 mature (Homo sapiens, UniProt Q99988); sequence looked up; chain ARARNGDHCPLGPGRCCRLHTVRASLEDLGWADWVLSPREVQVTMCIGACPSQFRAANMHAQIKTSLHRLKPDTVPAPCCVPASYNPMVLIQKTDTGVSLQTYDDLLAKDCHCI
B14: PSMG3/PSMG4 heterodimer (Homo sapiens); chain 1 MEDTPLVISKQKTEVVCGVPTQVVCTAFSSHILVVVTQFGKMGTLVSLEPSSVASDVSKPVLTTKVLLGQDEPLIHVFAKNLVAFVSQEAGNRAVLLAVAVKDKSMEGLKALREVIRVCQVW; chain 2 MEGLVVAAGGDVSLHNFSARLWEQLVHFHVMRLTDSLFLWVGATPHLRNLAVAMCSRYDSIPVSTSLLGDTSDTTSTGLAQRLARKTNKQVFVSYNLQNTDSNFALLVENRIKEEMEAFPEKF
B15: KtrA/KtrC heteromeric RCK ring (Bacillus subtilis); chain 1 MGRIKNKQFAVIGLGRFGGSICKELHRMGHEVLAVDINEEKVNAYASYATHAVIANATEENELLSLGIRNFEYVIVAIGANIQASTLTTLLLKELDIPNIWVKAQNYYHHKVLEKIGADRIIHPEKDMGVKIAQSLSDENVLNYIDLSDEYSIVELLATRKLDSKSIIDLNVRAKYGCTILAIKHHGDICLSPAPEDIIREQDCLVIMGHKKDIKRFENEGM; chain 2 MKKEFAVIGLGRFGGSICKALSEEGVEVMAMDIDEDKVNEYAKIASHAVIGDSTDESVLKNLGLRNFDHVIVAIGENIQASILTTLILKELGVHTITVKAQNDYHEKVLSKIGADHIVHPERDMAKRIAHNIVSNNVLDYLELSEEHSLVEIVANSRLAGNTLLDLDIRAKYGINIVAIKRGKEVIVSPLATEVIHQEDILIVIGSVTDISRFEKRVLHTK
B16: spt16 (Schizosaccharomyces pombe, UniProt O94267); chain MAEYEIDEITFHKRLGILLTSWKNEEDGKTLFQDCDSILVTVGAHDDTNPYQKSTALHTWLLGYEFPSTLILLEKHRITILTSVNKANMLTKLAETKGAAADVNILKRTKDAEENKKLFEKIIEYIRATNKKVGVFPKDKTQGKFINEWDSIFEPVKSEFNLVDASLGLAKCLAIKDEQELANIKGASRVSVAVMSKYFVDELSTYIDQGKKITHSKFSDQMESLIDNEAFFQTKSLKLGDIDLDQLEWCYTPIIQSGGSYDLKPSAITDDRNLHGDVVLCSLGFRYKSYCSNVGRTYLFDPDSEQQKNYSFLVALQKKLFEYCRDGAVIGDIYTKILGLIRAKRPDLEPNFVRNLGAGIGIEFRESSLLVNAKNPRVLQAGMTLNLSIGFGNLINPHPKNSQSKEYALLLIDTIQITRSDPIVFTDSPKAQGDISYFFGEDDSSLEDGVKPRKPPTRGTATISSHKGKTRSETRDLDDSAEKRRVEHQKQLASRKQAEGLQRFAQGSVPSSGIEKPTVKRFESYKRDSQLPQAIGELRILVDYRAQSIILPIFGRPVPFHISTLKNASKNDEGNFVYLRLNFVSPGQIGGKKDELPFEDPNAQFIRSFTFRSSNNSRMSQVFKDIQDMKKAATKRETERKEFADVIEQDKLIEIKNKRPAHINDVYVRPAIDGKRLPGFIEIHQNGIRYQSPLRSDSHIDLLFSNMKHLFFQPCEGELIVLIHVHLKAPIMVGKRKTQDVQFYREVSDIQFDETGNKKRKYMYGDEDELEQEQEERRRRAQLDREFKSFAEKIAEASEGRIELDIPFRELAFNGVPFRSNVLLQPTTDCLVQLTDTPFTVITLNEIEIAHLERVQFGLKNFDLVFIFQDFRRPPIHINTIPMEQLDNVKEWLDSCDICFYEGPLNLNWTTIMKTVNEDPIAFFEEGGWGFLGAPSDDEGDDSVEEVSEYEASDADPSDEEEEESEEYSEDASEEDGYSESEVEDEESGEDWDELERKARQEDAKHDAFEERPSKKRHR
Sequence of UniProt Q04929 (whole entry, looked up): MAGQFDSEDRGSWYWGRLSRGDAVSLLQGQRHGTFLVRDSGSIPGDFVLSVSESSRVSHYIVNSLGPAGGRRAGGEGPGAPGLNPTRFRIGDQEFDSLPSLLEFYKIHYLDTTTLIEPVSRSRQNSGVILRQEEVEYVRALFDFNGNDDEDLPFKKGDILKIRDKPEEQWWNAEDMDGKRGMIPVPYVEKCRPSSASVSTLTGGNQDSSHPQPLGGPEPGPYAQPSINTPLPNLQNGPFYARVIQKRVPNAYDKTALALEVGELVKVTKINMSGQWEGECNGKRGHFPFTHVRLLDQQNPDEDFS
Sequence of UniProt Q9SG86 (whole entry, unmodified, looked up): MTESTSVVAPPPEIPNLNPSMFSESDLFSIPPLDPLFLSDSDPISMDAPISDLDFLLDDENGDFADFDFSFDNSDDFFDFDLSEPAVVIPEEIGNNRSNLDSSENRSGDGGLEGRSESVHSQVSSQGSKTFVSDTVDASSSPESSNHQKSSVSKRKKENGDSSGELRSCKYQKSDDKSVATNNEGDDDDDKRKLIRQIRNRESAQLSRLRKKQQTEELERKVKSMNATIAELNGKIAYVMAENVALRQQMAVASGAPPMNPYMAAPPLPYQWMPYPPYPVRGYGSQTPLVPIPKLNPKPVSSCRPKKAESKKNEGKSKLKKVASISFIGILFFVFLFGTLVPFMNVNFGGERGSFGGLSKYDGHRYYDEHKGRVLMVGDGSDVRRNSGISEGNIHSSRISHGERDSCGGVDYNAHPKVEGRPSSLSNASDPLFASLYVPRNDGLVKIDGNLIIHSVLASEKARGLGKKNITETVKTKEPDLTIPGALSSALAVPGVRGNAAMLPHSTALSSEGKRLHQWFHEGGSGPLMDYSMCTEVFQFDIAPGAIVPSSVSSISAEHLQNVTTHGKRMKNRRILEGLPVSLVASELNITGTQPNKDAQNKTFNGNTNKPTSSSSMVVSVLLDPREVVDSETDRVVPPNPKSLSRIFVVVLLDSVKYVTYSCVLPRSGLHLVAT
Sequence of UniProt O43823 (whole entry, looked up): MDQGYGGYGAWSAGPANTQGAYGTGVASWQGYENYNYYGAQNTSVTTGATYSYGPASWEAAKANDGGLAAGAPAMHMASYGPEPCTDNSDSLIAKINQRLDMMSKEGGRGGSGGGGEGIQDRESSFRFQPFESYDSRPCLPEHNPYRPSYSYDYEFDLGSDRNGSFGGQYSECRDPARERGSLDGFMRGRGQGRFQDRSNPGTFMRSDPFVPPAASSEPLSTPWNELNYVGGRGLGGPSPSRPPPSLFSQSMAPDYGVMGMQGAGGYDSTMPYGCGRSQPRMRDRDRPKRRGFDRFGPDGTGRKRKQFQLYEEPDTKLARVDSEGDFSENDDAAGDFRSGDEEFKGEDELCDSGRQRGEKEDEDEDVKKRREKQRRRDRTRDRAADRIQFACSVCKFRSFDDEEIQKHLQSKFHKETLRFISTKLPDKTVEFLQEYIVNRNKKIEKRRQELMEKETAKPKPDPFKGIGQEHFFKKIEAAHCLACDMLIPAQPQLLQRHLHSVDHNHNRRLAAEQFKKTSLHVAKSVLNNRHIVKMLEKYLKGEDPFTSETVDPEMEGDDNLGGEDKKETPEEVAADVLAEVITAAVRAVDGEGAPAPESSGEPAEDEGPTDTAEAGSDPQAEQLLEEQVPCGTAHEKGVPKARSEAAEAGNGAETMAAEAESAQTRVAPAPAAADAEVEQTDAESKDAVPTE
Sequence of UniProt O14818 (whole entry, looked up): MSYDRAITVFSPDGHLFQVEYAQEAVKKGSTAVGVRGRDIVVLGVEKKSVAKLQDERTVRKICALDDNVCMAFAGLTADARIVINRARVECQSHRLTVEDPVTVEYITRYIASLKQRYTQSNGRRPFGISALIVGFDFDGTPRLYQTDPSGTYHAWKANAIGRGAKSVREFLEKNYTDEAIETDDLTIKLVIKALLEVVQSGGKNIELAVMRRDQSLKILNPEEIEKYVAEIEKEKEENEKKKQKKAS
Sequence of UniProt P35222 (whole entry, looked up): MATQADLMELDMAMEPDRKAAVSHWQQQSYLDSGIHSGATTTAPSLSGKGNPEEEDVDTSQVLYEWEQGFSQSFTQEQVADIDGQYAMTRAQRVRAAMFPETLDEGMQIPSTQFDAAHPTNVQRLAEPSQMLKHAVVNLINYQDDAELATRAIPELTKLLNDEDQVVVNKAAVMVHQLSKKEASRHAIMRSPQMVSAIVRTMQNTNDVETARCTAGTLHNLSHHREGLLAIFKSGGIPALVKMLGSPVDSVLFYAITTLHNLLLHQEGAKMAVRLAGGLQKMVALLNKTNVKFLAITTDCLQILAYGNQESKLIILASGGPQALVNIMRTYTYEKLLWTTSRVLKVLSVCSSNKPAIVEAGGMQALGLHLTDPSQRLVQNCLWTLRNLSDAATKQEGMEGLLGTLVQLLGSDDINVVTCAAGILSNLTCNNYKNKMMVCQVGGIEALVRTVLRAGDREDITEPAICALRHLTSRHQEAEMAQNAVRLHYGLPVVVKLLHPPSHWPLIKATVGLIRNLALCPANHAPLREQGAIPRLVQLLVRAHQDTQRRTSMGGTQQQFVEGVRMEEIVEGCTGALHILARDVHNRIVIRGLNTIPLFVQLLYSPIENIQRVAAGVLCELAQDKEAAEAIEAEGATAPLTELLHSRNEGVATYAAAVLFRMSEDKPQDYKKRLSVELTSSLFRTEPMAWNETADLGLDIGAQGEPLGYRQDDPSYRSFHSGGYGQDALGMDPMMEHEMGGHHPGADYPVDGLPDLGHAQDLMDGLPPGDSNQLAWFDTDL
Sequence of UniProt Q6UXV0 (whole entry, unmodified, looked up): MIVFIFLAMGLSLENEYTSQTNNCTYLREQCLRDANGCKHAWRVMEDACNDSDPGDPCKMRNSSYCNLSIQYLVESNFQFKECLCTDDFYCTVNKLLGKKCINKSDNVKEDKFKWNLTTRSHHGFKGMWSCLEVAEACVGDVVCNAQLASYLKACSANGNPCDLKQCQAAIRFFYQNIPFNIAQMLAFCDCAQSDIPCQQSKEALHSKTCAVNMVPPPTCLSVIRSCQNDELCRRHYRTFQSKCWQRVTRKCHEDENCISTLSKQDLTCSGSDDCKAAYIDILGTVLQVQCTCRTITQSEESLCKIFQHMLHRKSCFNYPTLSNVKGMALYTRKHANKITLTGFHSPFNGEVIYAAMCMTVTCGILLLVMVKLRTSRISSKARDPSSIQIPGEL
Sequence of UniProt Q9JHW4 (whole entry, looked up): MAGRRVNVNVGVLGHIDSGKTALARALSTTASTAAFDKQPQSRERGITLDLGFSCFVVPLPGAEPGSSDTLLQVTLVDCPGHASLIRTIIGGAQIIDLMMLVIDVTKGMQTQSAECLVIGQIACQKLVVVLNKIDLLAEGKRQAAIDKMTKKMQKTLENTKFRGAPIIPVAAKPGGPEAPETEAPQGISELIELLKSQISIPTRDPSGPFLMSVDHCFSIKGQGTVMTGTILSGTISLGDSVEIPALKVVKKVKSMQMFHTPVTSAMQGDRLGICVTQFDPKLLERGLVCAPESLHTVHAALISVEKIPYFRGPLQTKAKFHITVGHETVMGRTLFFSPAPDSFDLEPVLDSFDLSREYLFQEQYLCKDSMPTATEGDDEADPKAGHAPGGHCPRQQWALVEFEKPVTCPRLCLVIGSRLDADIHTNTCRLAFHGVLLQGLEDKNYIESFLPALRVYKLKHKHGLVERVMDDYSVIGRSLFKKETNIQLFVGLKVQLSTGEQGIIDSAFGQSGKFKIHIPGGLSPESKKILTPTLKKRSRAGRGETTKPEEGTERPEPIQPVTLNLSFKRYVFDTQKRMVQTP
Sequence of UniProt P49687 (whole entry, looked up): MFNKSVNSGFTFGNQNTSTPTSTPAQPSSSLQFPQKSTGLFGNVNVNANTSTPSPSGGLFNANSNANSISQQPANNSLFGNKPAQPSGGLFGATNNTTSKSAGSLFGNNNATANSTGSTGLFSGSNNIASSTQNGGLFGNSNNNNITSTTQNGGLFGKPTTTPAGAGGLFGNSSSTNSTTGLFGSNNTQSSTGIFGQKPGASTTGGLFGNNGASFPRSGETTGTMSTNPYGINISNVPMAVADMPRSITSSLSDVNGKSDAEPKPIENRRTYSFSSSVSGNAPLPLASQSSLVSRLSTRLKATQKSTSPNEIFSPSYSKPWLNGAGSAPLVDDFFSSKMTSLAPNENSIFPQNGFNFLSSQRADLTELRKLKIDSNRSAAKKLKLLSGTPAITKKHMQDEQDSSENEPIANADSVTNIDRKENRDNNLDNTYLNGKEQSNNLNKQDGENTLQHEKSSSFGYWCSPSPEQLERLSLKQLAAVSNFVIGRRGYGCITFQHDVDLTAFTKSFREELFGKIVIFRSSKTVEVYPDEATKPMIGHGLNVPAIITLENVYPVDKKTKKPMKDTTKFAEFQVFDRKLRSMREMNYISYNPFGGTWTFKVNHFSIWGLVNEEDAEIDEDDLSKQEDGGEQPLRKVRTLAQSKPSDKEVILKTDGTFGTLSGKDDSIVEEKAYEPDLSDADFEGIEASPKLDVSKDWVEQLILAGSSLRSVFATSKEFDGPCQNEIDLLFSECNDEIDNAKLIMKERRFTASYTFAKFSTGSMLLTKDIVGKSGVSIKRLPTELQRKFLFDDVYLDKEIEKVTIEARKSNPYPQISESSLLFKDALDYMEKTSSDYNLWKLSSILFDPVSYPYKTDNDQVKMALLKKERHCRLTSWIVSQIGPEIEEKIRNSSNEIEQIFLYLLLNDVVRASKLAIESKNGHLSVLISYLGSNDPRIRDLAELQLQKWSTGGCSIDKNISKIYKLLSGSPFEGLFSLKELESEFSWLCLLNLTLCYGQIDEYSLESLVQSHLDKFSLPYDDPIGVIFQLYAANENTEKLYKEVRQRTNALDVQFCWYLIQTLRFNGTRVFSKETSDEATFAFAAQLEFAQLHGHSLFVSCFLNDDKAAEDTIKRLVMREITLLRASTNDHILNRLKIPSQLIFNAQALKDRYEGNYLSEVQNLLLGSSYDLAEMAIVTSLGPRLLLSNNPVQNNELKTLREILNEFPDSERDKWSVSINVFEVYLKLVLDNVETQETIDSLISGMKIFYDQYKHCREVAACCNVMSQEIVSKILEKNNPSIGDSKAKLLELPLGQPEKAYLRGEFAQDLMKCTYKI

`B1 (POLR2A 1356-1767)`: binding “binds” (AKAP8 (Homo sapiens, UniProt O43823); pull-down).
`B2`: binding “binds” (cysI 1-570 (Escherichia coli, UniProt P17846); cryo-EM structure).
Under binding, `B3 (NR4A2 1-165)` is recorded as “binds” (Ncoa1 1-369 (Mus musculus, UniProt P70365); pull-down).
`B4 (BDP1 1-484)` — result for binding: “binds” (BRF2/TBP 159-339; full length (Homo sapiens); cryo-EM).
`RPS14 fragment (Kluyveromyces lactis) (sequence not shown)` — result for binding: “binds” (SUI2 fragment (Saccharomyces cerevisiae); cryo-EM structure).
Under binding, `B5 (SIS1 residues 1-121)` is recorded as “binds” (SSA1 T201A (Saccharomyces cerevisiae, UniProt P10591); NMR titration; with: ATP).
Under binding, `B6 (SEH1)` is recorded as “binds” (NUP145 C-terminal subunit (Saccharomyces cerevisiae, UniProt P49687); cross-linking).
`B7 (McsA)`: binding “binds” (mcsB C167A (Bacillus subtilis, UniProt P37570); SEC).
`B8 (rasC Q62L)`: binding “binds” (racE T25N/S192D (Dictyostelium discoideum); pull-down).
For `GPEPGPYAQPSVNTP (CRK residues 215-229; phosphotyrosine)`, binding read “binds” (CRK 13-119 (Gallus gallus, UniProt Q04929); pull-down; peptide).
`FAEKFKEAVKDYFAKFWDPAAEKLKEAVKDYFAKLWD (reversed nanodisc peptide NSPr)`: binding “binds” (SOAT1 66-550 (Homo sapiens, UniProt P35610); reconstitution pull-down; peptide; with: detergent-free).
`B9 (EFR3A 721-791 A734R)` — result for binding: “binds” (TTC7B/FAM126A FAM126A 1-308 (Homo sapiens); BLI).
Under binding, `B10 (Secisbp2 586-846)` is recorded as “binds” (Eefsec (Mus musculus, UniProt Q9JHW4); EMSA).
For `B11 (ranibizumab Fab)`, binding read “no binding” (VEGFD (Homo sapiens, UniProt O43915); SPR; Fab).
`B12 (CCA1 204-405)`: binding “binds” (BZIP28 1-322 (Arabidopsis thaliana, UniProt Q9SG86); pull-down).
Under binding, `B13 (GDF15 mature)` is recorded as “binds” (GFRAL 19-351 (Homo sapiens, UniProt Q6UXV0); ELISA).
For `GGDDLGANDELISFKDEGEQEEK (TCF7L2 8-30 (UniProt Q9NQB0); C-terminal fluorescein label; sequence looked up)`, binding read “binds” (CTNNB1 135-668 (Homo sapiens, UniProt P35222); fluorescence polarisation; peptide).
`B14 (PSMG3/PSMG4 heterodimer)`: binding “binds” (PSMA7 (Homo sapiens, UniProt O14818); cryo-EM).
For `B15 (KtrA/KtrC heteromeric RCK ring)`, binding read “binds” (ktrB 1-445 (Bacillus subtilis, UniProt O32081); SEC).
`B16 (spt16)`: binding “binds” (abo1 (Schizosaccharomyces pombe, UniProt O14114); native gel).
`ACKGQGSMDEGTADERAPLIRT (SCARB2 457-478 (Homo sapiens, UniProt Q14108))`: binding “binds” (AP2A2/AP2B1/AP2M1/AP2S1 core, lacking appendage domains (Mus musculus); pull-down; peptide).
`EEPSLLKKLLLAPA (PGC1α peptide residues 139-152; N-terminal 5-FAM)`: binding “binds” (NR5A2 266-541 (Homo sapiens, UniProt O00482); fluorescence polarisation; peptide).
